Measurements collected from several papers.
Lines come from different studies, so protocols differ. Several values in a cell are separate wells, animals, samples, runs or records. ± gives the spread as reported.

Structure (SMILES) | assay | test system | conditions | scale | measurement | value
CC1(C)C(=O)N(c2ccc(C#N)c(C(F)(F)F)c2)C(=S)N1c1ccc(C(N)=O)c(F)c1 | – | human, male, plasma | oral, 80 mg, single dose, fasting | – | Tmax | 180 ± 28 h
CCCCCCCCCCCCCCCC(=O)N[C@@H](CCC(=O)NCCOCCOCCC(=O)NCCOCCOCCC(=O)NCCCC[C@H](NC(=O)[C@H](CC(=O)O)NC(=O)[C@H](CC(C)C)NC(=O)[C@H](Cc1ccc(O)cc1)NC(=O)[C@H](CCCCN)NC(=O)[C@H](CO)NC(=O)[C@H](Cc1ccc(O)cc1)NC(=O)[C@H](CC(=O)O)NC(=O)[C@H](CO)NC(=O)[C@@H](NC(=O)[C@H](Cc1ccccc1)NC(=O)[C@@H](NC(=O)CNC(=O)[C@H](CCC(N)=O)NC(=O)[C@@H](CO)NC(=O)[C@@H](N)Cc1c[nH]cn1)[C@@H](C)O)[C@@H](C)O)C(=O)N[C@@H](CCCNC(=N)N)C(=O)N[C@@H](CCCNC(=N)N)C(=O)N[C@@H](C)C(=O)N[C@@H](CCC(N)=O)C(=O)N[C@@H](CC(=O)O)C(=O)N[C@@H](Cc1ccccc1)C(=O)N[C@H](C(=O)N[C@@H](CCC(N)=O)C(=O)N[C@@H](Cc1c[nH]c2ccccc12)C(=O)N[C@@H](CC(C)C)C(=O)N[C@@H](CC(C)C)C(=O)N[C@@H](CC(N)=O)C(=O)N[C@H](C(=O)NCC(=O)NCC(=O)N1CCC[C@H]1C(=O)N[C@@H](CO)C(=O)N[C@@H](CO)C(=O)NCC(=O)N[C@@H](C)C(=O)N1CCC[C@H]1C(=O)N1CCC[C@H]1C(=O)N1CCC[C@H]1C(=O)N[C@@H](CO)C(N)=O)[C@@H](C)O)C(C)C)C(=O)O | – | rhesus monkey, female, plasma | subcutaneous, 300 µg/kg, day 28, toxicokinetics, mean | – | Cmax | 533 ng/mL
CC(=O)NCCCC[C@@H]1NC(=O)[C@H](Cc2c[nH]c3c(C)cccc23)NC(=O)[C@H]([C@@H](C)O)NC(=O)[C@H](CC(N)=O)NC(=O)[C@@H](NC(C)=O)C(C)(C)SSC(C)(C)[C@@H](C(=O)N[C@@H](Cc2ccc(OCCN)cc2)C(=O)N[C@@H](Cc2ccc3ccccc3c2)C(=O)NC2(C(=O)N[C@@H](CCC(=O)O)C(=O)N[C@@H](CC(N)=O)C(=O)N[C@@H](Cc3cccnc3)C(=O)N(C)CC(N)=O)CCOCC2)NC1=O | – | dog, blood | 0.013 µM, 2 h | – | blood to plasma ratio | 0.84 ± 0.06
O=C1NC2(CC2)COc2ncc(F)cc2[C@H]2COCCN2c2ccn3ncc1c3n2 | – | Sprague-Dawley rat, female, blood | oral, 20 mg/kg/day, 4 weeks, end of treatment, subacute toxicity | – | monocyte percentage | 4.5 ± 1%
COc1cnc2cccc(N3CCc4c(cc(Cn5ccnc5)cc4-c4cn(C)nc4C(F)(F)F)C3=O)c2c1 | – | BALB/c nude mice, MV4-11 xenograft | intraperitoneal, 75 mg/kg, day 24 | – | body weight | 21.7 g and 25.7 g and 23 g and 23.5 g and 20.9 g and 22.6 g and 22.2 g and 23.2 g
CC(C)C[C@H](NC(=O)[C@H](Cc1ccc(O)cc1)NC(=O)CNC(=O)CNC(=O)CNC(=O)[C@H](Cc1c[nH]cn1)NC(=O)[C@H](Cc1c[nH]cn1)NC(=O)[C@@H](NC(=O)CNC(=O)[C@H](Cc1c[nH]cn1)NC(=O)[C@H](Cc1ccccc1)NC(=O)[C@H](CC(C)C)NC(=O)[C@H](CC(C)C)NC(=O)[C@H](CCCNC(=N)N)NC(=O)[C@H](Cc1ccccc1)NC(=O)[C@@H](N)Cc1ccccc1)C(C)C)C(=O)N[C@@H](CC(N)=O)C(=O)N[C@@H](C)C(=O)N[C@@H](C)C(N)=O | – | zebrafish embryos 28 hpf, E3 medium | 24 h | – | chronic toxic concentration | 25 µM
CSCC[C@H](NC(=O)CNC(=O)[C@H](CCCCN)NC(=O)[C@H](CC(C)C)NC(=O)[C@@H]1CCCN1C(=O)[C@H](CO)NC(=O)[C@H](Cc1c[nH]cn1)NC(=O)[C@H](Cc1c[nH]c2ccccc12)NC(=O)[C@H](CCCNC(=N)N)NC(=O)[C@H](CC(C)C)NC(=O)[C@H](CCCNC(=N)N)NC(=O)[C@H](Cc1c[nH]c2ccccc12)NC(=O)[C@H](CS)NC(=O)CCCCCNC(=O)CN1CCN(CC(=O)O)CCN(CC(=O)O)CCN(CC(=O)O)CC1)C(=O)O [copper-64 labelled] | – | C57BL/6J mice, B16-F10 tumour | intravenous, 1.85 MBq, 0.5 h | baseline: tumour over blood | tumour-to-blood ratio | 1.48
CCCCCCCC(=O)NCCCC[C@H](NC(=O)CCCCCCC)C(=O)N[C@@H](CCCCNC(=O)CCCCCCC)C(=O)NCC(=O)NCC(=O)NCC(=O)N[C@@H](CS)C(=O)N[C@@H](CCCNC(=N)N)C(=O)N[C@@H](CCCCN)C(=O)N1CCC[C@H]1C(=O)N[C@@H](CS)C(=O)N[C@@H](CCCNC(=N)N)C(=O)N[C@@H](CCCCN)C(=O)N1CCC[C@H]1C(=O)N[C@@H](CS)C(=O)N[C@@H](CCCNC(=N)N)C(=O)N[C@@H](CCCCN)C(=O)N1CCC[C@H]1C(N)=O | TEM | phosphate buffer | 64 µM, overnight | – | assembly diameter | 7.97 ± 0.14 nm
CC[C@H](C)[C@H](NC(=O)[C@H](CCCCN)NC(=O)CNC(=O)[C@H](CC(C)C)NC(=O)[C@H](Cc1ccccc1)NC(=O)[C@H](CCCCN)NC(=O)[C@H](CO)NC(=O)[C@H](Cc1ccccc1)NC(=O)[C@H](Cc1c[nH]c2ccccc12)NC(=O)[C@H](CCC(N)=O)NC(=O)[C@@H](NC(=O)[C@H](Cc1ccccc1)NC(=O)CCCCCNC(=O)CN1CCN(CC(=O)O)CCN(CC(=O)O)CCN(CC(=O)O)CC1)C(C)C)C(=O)N[C@@H](CCC(=O)O)C(=O)N1CCC[C@H]1C(=O)N[C@@H](CC(=O)O)C(=O)N[C@H](C(=O)N[C@@H](CO)C(=O)N[C@@H](CCC(N)=O)C(=O)N[C@H](C(=O)N[C@@H](CCC(N)=O)C(=O)N[C@@H](CC(=O)O)C(=O)N1CCC[C@H]1C(=O)N[C@@H](CC(N)=O)C(=O)N[C@@H](CC(=O)O)C(=O)N[C@@H](CCC(N)=O)C(=O)N[C@@H](Cc1ccc(O)cc1)C(=O)N[C@@H](CCC(=O)O)C(=O)N1CCC[C@H]1C(=O)N[C@@H](Cc1ccccc1)C(=O)O)C(C)C)C(C)C [copper-64 labelled] | dynamic PET | mouse both sexes, CT26 tumour, checkpoint inhibitor-treated, tumour | intravenous, 100 µCi/mouse, 150 s | – | SUVmean | 2.28 SUV
Cc1ccccc1-c1ccc(-c2nc(-c3ccc(CN(C)CCCC(=O)O)c([18F])c3)no2)cc1C(F)(F)F | – | rat, bone | 2 h | – | tracer uptake | 0.08 %ID/g
N#[11C]c1ccc(-c2csc(NN=C3CCCC3)n2)cc1 | – | C57BL/6 mouse, male | intravenous, 3 MBq, 15 min | – | uptake in testis | 1.12 ± 0.05 %ID/g
C[C@H](NCc1ccc(-c2ccc(C(F)(F)F)cc2)cc1)C(N)=O | – | Sprague-Dawley rat, plasma | oral, 10 mg/kg | – | bioavailability | 123%

Excerpt of the above:
Structure (SMILES) | assay | test system | conditions | scale | measurement | value
N#[11C]c1ccc(-c2csc(NN=C3CCCC3)n2)cc1 | – | C57BL/6 mouse, male | intravenous, 3 MBq, 15 min | – | uptake in testis | 1.12 ± 0.05 %ID/g
C[C@H](NCc1ccc(-c2ccc(C(F)(F)F)cc2)cc1)C(N)=O | – | Sprague-Dawley rat, plasma | oral, 10 mg/kg | – | bioavailability | 123%
